Measurements of several laboratories.
Protocols differ between the studies behind these lines. ± marks the error that the study gave.

For `COc1ccc(-c2nc(N3CCOCC3)c3sc(CN(C)c4ncc(C(=O)NO)cn4)cc3n2)cn1`, the IC50 was 17.6 nM (MP38 uveal melanoma BAP1-mutant; cell viability, CellTiter-Glo; 72 h).
`O=C1CCCCC1C1C2C=CC=CC1C(CCCCOC1CCCCO1)=C2` (stereo not drawn) has an IC50 of 784 ± 72 nM (normal fibroblasts; cytotoxicity).
With `O=C(CCCCCONC(=O)c1nc(-c2ccccc2[N+](=O)[O-])cs1)NO` the IC50 was 16100 nM (neonatal foreskin fibroblasts; cytotoxicity, sulforhodamine B; 72 h).
`Cc1cc(-c2nc(C(=O)Nc3cc4oc(N5CCOCC5)nc4nc3N3CC[C@@H](O)C3)co2)ccn1` gave an IC50 of 1210 nM (OCI-Ly3 (MYD88 L265P); cell growth, cell count; 120 h).
`CN1CCC(NC2CCc3[nH]c4c(C(N)=O)ccc(-c5ccccc5Cl)c4c3C2)CC1` (stereo not drawn) gave an IC50 of 29 nM (MCF7/PTX, paclitaxel-resistant; cell growth, CellTiter-Glo; 96 h).
`Cc1c(C)c2c(c(C)c1O)CCC(C)(COc1ccc(CC3SC(=O)NC3=O)cc1)O2` (stereo not drawn) gave an IC50 of 70900 ± 87 nM (THLE-2, 3D culture; MTT).
The IC50 of `CC(=O)N1c2ccc(-c3ccc(C(=O)O)cc3)cc2[C@H](Nc2ccc(Cl)cc2)C[C@@H]1C` is reported as 248 nM (MP38 uveal melanoma BAP1-mutant; cell viability, CellTiter-Glo).
With `CCCCC1=CC2C=CC=CC1C2C1CCCCC1=O` (stereo not drawn) the IC50 was 246 ± 19 nM (normal fibroblasts; cytotoxicity).
With `O=[N+]([O-])c1ccc(NC(=S)N/N=C/c2cccc3cc4ccccc4nc23)cc1` the IC50 was > 50000 nM (PATU; cell proliferation, MTT; 48 h).
For `Nc1ccn([C@@H]2O[C@H](CO)[C@@H](O)C2(F)F)c(=O)n1`, the IC50 was 1230 nM (MP38 uveal melanoma BAP1-mutant; cell viability, CellTiter-Glo; 72 h).
The IC50 of `C[C@H](Nc1ccc2c(c1)OCCn1cc(N3C(=O)OC[C@H]3C(F)F)nc1-2)C(N)=O` is reported as 10000 nM (BT-483; growth rate inhibition, CellTiter-Glo; 120 h).
For `Cc1cc(Nc2ncnc3ccc(NC4=NC(C)(C)CO4)cc23)ccc1Oc1ccn2ncnc2c1`, the IC50 was 88.5 nM (Ba/F3 expressing HER2 V659E; cell growth, inhibitor, CellTiter-Glo).
`CC[C@H](C)[C@@H]1NC(=O)[C@H](Cc2ccc(-c3ccccc3)cc2)NC(=O)[C@H](CC(C)C)NC(=O)[C@@H]2[C@@H](c3ccccc3)CCN2C(=O)[C@H](NC(=O)[C@H](CCCNC(=N)N)NC(=O)[C@H](CCCNC(=N)N)NC(=O)[C@H](CCCCN=[N+]=[N-])NC(C)=O)CSCSC[C@@H](C(=O)N[C@@H](CCCNC(=N)N)C(=O)N[C@@H](CCCNC(=N)N)C(N)=O)NC(=O)[C@H](C(C)C)NC(=O)[C@@H]2CCCN2C(=O)[C@H](CC(=O)O)NC(=O)[C@H](Cc2ccc(O)cc2)NC(=O)[C@H](CO)NC1=O` gave an IC50 of > 50000 nM (A-375 (BRAF V600E); AlphaScreen, measured: pERK; 18 h).
With `CC(C)(C)SCCCC1=CC2C=CC=CC1C2C1CCCCC1=O` (stereo not drawn) the IC50 was 311 ± 28 nM (normal fibroblasts; cytotoxicity).
`CN1CCN(c2ccc3nc(-c4c(N)c5c(F)cccc5[nH]c4=O)[nH]c3c2)CC1` has an IC50 of 1120 nM (primary AML mononuclear cells, FLT3-ITD positive; cell viability, MTS; ex vivo).
With `CS(=O)(=O)CCNCc1ccc(-c2ccc3ncnc(Nc4ccc(OCc5cccc(F)c5)c(Cl)c4)c3c2)o1` the IC50 was 118 nM (Ba/F3 expressing HER2 V659E; cell growth, inhibitor, CellTiter-Glo).
The IC50 of `Cn1cc(CNCC2CCN(c3ncc(C(=O)NO)cn3)CC2)c2ccccc21` is reported as 11.6 nM (MP38 uveal melanoma BAP1-mutant; cell viability, CellTiter-Glo; 72 h).
`C=CC(=O)NC1CCN(c2ncc3ncnc(Nc4ccc(Oc5ccc6c(c5)ncn6C)c(C)c4)c3n2)CC1` gave an IC50 of 0.9 nM (Ba/F3 expressing HER2 S310F; cell growth, inhibitor, CellTiter-Glo).
For `CCc1nc(C(N)=O)c(Nc2ccc(N3CCC(N4CCN(C)CC4)CC3)c(OC)c2)nc1NC1CCOCC1`, the IC50 was 1650 nM (primary AML mononuclear cells, FLT3-ITD positive; cell viability, MTS; ex vivo).
`CCOC(=O)CCC1=CC2C=CC=CC1C2C1CCCCC1=O` (stereo not drawn) gave an IC50 of 318 ± 29 nM (normal fibroblasts; cytotoxicity).
With `Cc1nc(NC(=O)N2CCC[C@H]2C(N)=O)sc1-c1ccnc(C(C)(C)C(F)(F)F)c1` the IC50 was 1100 nM (TCC-SUP; cell growth, CellTiter-Glo; 120 h).
For `COc1cc([C@@H]2c3cc4c(cc3[C@H](O)[C@H]3COC(=O)[C@H]23)OCO4)cc(OC)c1OC`, the IC50 was 15 nM (MP38 uveal melanoma BAP1-mutant; cell viability, CellTiter-Glo; 72 h).
For `S=C(N/N=C/c1cccc2cc3ccccc3nc12)Nc1ccccc1`, the IC50 was > 50000 nM (PATU; cell proliferation, MTT; 48 h).
`O=[N+]([O-])c1ccc(Sc2cccc[n+]2[O-])c2nonc12` has an IC50 of 322 nM (MP38 uveal melanoma BAP1-mutant; cell viability, CellTiter-Glo).
With `Cc1cn(C2CCN(Cc3ccnc(Oc4cccc(Cl)c4)c3)CC2)c(=O)[nH]c1=O` the IC50 was 58900 nM (MRC-5 cells; cytotoxicity; 3 days).
The IC50 of `CCOc1cc2ncc(C#N)c(Nc3ccc(OCc4ccccn4)c(Cl)c3)c2cc1NC(=O)/C=C/CN(C)C` is reported as 0.3 nM (Ba/F3 expressing HER2 S310F; cell growth, inhibitor, CellTiter-Glo).
`O=C1CCCCC1C1C2C=CC=CC1C(CCN1C(=O)c3ccccc3C1=O)=C2` (stereo not drawn) has an IC50 of 196 ± 19 nM (normal fibroblasts; cytotoxicity).
`Cc1[nH]c2ccccc2c1CCNCc1ccc(/C=C/C(=O)NO)cc1` gave an IC50 of 35.8 nM (MP38 uveal melanoma BAP1-mutant; cell viability, CellTiter-Glo; 72 h).
`COc1c(Cl)cccc1Nc1c(-c2ccncc2OC[C@@H]2COCCO2)[nH]c2c1C(=O)NCC2` has an IC50 of 2.8 nM (Ba/F3 expressing HER2 S310F; cell growth, inhibitor, CellTiter-Glo).
For `COc1cccc(NC(=S)N/N=C/c2cccc3cc4ccccc4nc23)c1`, the IC50 was > 50000 nM (PATU; cell proliferation, MTT; 48 h).
With `CC[C@]1(O)C[C@@H]2CN(CCc3c([nH]c4ccccc34)[C@@](C(=O)OC)(c3cc4c(cc3OC)N(C)[C@H]3[C@@](O)(C(=O)OC)[C@H](OC(C)=O)[C@]5(CC)C=CCN6CC[C@]43[C@@H]65)C2)C1` the IC50 was 713 ± 16.5 nM (KB-C2; cell viability).
The IC50 of `C=CCn1c(=O)c2cnc(Nc3ccc(N4CCN(C)CC4)cc3)nc2n1-c1ccc2c(n1)[C@@](O)(CC)CC2` is reported as 627 nM (MDA-MB-231; cell viability, CellTiter-Glo; 72 h).
`C=CC(=O)Nc1cc(Nc2nccc(-c3cn(C)c4ccccc34)n2)c(OC)cc1N(C)CCN(C)C` has an IC50 of 2680 nM (Ba/F3 EGFR L858R/T790M/C797S; cell growth; 72 h).
With `CC(C)(C)Cn1c(N)nc2ccc(-c3[nH]c(C(C)(C)C)nc3-c3ccc(F)cc3)nc21` the IC50 was 16700 nM (NCI-H1975 (EGFR L858R/T790M); cell growth).
`CCCCCCCCC1=CC2C=CC=CC1C2C1CCCCC1=O` (stereo not drawn) has an IC50 of 673 ± 59 nM (normal fibroblasts; cytotoxicity).
`Cn1nnc2c(C(N)=O)ncn2c1=O` has an IC50 of 5100 nM (sample A patient-derived glioblastoma; neurosphere formation).
`O=C(CCCCCONC(=O)c1nc(-c2ccccn2)cs1)NO` gave an IC50 of 7130 nM (neonatal foreskin fibroblasts; cytotoxicity, sulforhodamine B; 72 h).
`CCCCC[C@@H]1NC(=O)[C@@H]2CCCN2C(=O)[C@H](CC(=O)O)NC(=O)[C@H](Cc2ccc(O)cc2)NC(=O)[C@H](CO)NC(=O)[C@H]([C@@H](C)CC)NC(=O)[C@H](Cc2ccc(-c3ccccc3)cc2)NC(=O)[C@H](CC(C)C)NC(=O)[C@@H]2[C@@H](c3ccccc3)CCN2C(=O)[C@H](NC(=O)[C@H](CCCNC(=N)N)NC(=O)[C@H](CCCNC(=N)N)NC(C)=O)CSCSC[C@@H](C(=O)N[C@@H](CCCNC(=N)N)C(=O)N[C@@H](CCCNC(=N)N)C(N)=O)NC1=O` has an IC50 of > 50000 nM (A-375 (BRAF V600E); AlphaScreen, measured: pERK; 18 h).
The IC50 of `O=c1[nH]cc(F)c(=O)[nH]1` is reported as 46400 nM (HIEC cells; cell viability, CCK-8; 48 h).
The IC50 of `Cc1noc2c1-c1ccc(-c3cnn(C)c3)cc1C(c1ccc(Cl)cc1)=N[C@H]2CC(N)=O` is reported as 344 nM (MP38 uveal melanoma BAP1-mutant; cell viability, CellTiter-Glo).
For `CC[C@@H](C)[C@H]1NC(=O)[C@H](Cc2ccc(-c3ccccc3)cc2)NC(=O)[C@H](CC(C)C)NC(=O)[C@@H]2[C@@H](c3ccccc3)CCN2C(=O)[C@H](NC(=O)[C@@H](CCCNC(=N)N)NC(=O)[C@@H](CCCNC(=N)N)NC(C)=O)CSCSC[C@@H](C(=O)N[C@H](CCCNC(=N)N)C(=O)N[C@H](CCCNC(=N)N)C(N)=O)NC(=O)[C@H](C(C)C)NC(=O)[C@@H]2CCCN2C(=O)[C@H](CC(=O)O)NC(=O)[C@H](Cc2ccc(O)cc2)NC(=O)[C@@](C)(CO)NC1=O`, the IC50 was > 50000 nM (A-375 (BRAF V600E); AlphaScreen, measured: pERK; 18 h).
The IC50 of `Cc1c(C(=O)O)ccc2c3n(nc12)[C@@H]1[C@H](C3)N(CC2CC2)[C@@]2(C(=O)Nc3cc(Cl)ccc32)[C@H]1c1cccc(Cl)c1F` is reported as 1.06 nM (JAR; cell proliferation, alamarBlue).
`COc1cc2c3c(n(CCCNC(C)C)c(=O)c2cc1OC)-c1nc2c(cc1C3=O)OCO2` has an IC50 of 55 nM (CHLA-32 Ewing sarcoma cells; cytotoxicity, MTS; 72 h).
With `C=CCO[C@H]1CCN2C(=O)[C@H](NC(=O)[C@H](CCCNC(=N)N)NC(=O)[C@H](CCCNC(=N)N)NC(C)=O)CSCSC[C@@H](C(=O)N[C@@H](CCCNC(=N)N)C(=O)N[C@@H](CCCNC(=N)N)C(N)=O)NC(=O)[C@H](CCCCC)NC(=O)[C@@H]3CCCN3C(=O)[C@H](CC(=O)O)NC(=O)[C@H](Cc3ccc(O)cc3)NC(=O)[C@H](CO)NC(=O)[C@H]([C@@H](C)CC)NC(=O)[C@H](Cc3ccc(-c4ccccc4)cc3)NC(=O)[C@H](CC(C)C)NC(=O)[C@H]12` the IC50 was > 50000 nM (A-375 (BRAF V600E); AlphaScreen, measured: pERK; 18 h).
With `C=CC(=O)Nc1cc(Nc2nccc(-c3cn(C)c4ccccc34)n2)c(OC)cc1N(C)CCN(C)C` the IC50 was 34.92 ± 0.01 nM (Ba/F3 EGFR G719S; cell proliferation, CellTiter-Glo; 72 h).
For `CNC(=S)N/N=C/c1cccc2cc3ccccc3nc12`, the IC50 was 15700 ± 2400 nM (PATU; cell proliferation, MTT; 48 h).
With `N#CCCCC1=CC2C=CC=CC1C2C1CCCCC1=O` (stereo not drawn) the IC50 was 389 ± 34 nM (normal fibroblasts; cytotoxicity).
`COc1cc2c3c(n(CCCn4ccnc4)c(=O)c2cc1OC)-c1nc2c(cc1C3=O)OCO2` has an IC50 of 280 nM (CHLA-32 Ewing sarcoma cells; cytotoxicity, MTS; 72 h).
`CNC(=O)c1cc(Oc2ccc(NC(=O)Nc3ccc(Cl)c(C(F)(F)F)c3)cc2)ccn1` gave an IC50 of 2010 nM (primary AML mononuclear cells, FLT3-ITD positive; cell viability, MTS; ex vivo).
With `COc1cc2c3c(n(CCCNCCO)c(=O)c2cc1OC)-c1nc2c(cc1C3=O)OCO2` the IC50 was 96 nM (CHLA-32 Ewing sarcoma cells; cytotoxicity, MTS; 72 h).
The IC50 of `CCCCN1C[C@H](O)[C@@H](O)[C@@H](O)[C@H]1CO` is reported as 22000 nM (sample BA patient fibroblasts; Gb3 level lowering, LC-MS/MS, measured: Gb3 d18:1/24:0; 216 h).
